Measurements collected from several papers.
Compare with care: the assays were run in different laboratories. Values joined by “and” are separate records of one study, mostly repeats; a detail may differ.
Sequence of UniProt O14965 (whole entry, looked up): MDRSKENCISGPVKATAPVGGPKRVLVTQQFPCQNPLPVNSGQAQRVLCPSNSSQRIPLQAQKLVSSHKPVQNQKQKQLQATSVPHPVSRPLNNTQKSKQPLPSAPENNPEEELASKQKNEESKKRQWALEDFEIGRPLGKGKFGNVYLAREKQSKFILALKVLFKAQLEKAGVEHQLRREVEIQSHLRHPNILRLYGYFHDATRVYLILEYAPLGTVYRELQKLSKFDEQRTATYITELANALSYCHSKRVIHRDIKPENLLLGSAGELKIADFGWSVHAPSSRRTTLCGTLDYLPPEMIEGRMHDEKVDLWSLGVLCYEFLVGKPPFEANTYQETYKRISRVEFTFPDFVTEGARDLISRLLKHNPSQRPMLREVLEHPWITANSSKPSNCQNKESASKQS
Sequence of UniProt P26358 (whole entry, looked up): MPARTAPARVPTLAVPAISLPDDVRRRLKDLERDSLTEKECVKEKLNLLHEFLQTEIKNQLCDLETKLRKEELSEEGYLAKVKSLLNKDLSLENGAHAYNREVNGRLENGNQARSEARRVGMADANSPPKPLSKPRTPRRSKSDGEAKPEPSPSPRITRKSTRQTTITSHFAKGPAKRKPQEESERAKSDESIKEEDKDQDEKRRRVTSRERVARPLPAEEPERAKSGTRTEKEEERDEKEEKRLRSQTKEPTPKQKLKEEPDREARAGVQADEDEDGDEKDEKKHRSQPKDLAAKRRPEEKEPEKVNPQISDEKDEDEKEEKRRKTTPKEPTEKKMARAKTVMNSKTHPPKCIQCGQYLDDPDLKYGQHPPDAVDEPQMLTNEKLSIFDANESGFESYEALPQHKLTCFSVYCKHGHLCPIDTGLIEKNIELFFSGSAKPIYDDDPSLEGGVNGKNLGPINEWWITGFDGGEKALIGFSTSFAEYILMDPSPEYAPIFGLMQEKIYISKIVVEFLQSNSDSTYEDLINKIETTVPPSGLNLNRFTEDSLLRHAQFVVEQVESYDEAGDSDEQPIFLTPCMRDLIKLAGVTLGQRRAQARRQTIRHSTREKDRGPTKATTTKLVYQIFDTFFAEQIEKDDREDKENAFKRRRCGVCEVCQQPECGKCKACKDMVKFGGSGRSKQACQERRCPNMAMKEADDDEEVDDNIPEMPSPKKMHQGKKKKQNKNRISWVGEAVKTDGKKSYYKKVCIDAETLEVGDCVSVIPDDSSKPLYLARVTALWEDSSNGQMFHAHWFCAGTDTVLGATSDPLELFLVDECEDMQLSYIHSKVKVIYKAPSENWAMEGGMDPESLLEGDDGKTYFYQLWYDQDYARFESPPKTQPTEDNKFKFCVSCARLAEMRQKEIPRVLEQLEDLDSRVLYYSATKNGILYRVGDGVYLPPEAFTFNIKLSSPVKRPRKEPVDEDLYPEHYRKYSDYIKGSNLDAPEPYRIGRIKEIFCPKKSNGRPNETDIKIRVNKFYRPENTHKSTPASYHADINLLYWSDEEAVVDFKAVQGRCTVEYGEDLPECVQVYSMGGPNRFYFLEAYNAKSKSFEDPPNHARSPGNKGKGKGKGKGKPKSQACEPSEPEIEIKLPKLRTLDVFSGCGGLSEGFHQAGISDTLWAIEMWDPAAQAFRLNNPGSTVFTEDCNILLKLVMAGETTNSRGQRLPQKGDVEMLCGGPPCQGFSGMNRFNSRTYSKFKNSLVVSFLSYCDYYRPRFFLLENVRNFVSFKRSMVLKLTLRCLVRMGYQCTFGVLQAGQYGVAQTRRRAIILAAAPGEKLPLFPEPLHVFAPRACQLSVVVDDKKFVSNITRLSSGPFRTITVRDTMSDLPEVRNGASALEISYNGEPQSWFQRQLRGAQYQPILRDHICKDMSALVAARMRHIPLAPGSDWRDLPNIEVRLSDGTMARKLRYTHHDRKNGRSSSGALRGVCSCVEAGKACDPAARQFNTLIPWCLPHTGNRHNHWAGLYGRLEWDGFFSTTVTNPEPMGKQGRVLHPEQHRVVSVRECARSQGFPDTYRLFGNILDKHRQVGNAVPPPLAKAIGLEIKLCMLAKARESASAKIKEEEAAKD
Sequence of UniProt Q06418 (whole entry, looked up): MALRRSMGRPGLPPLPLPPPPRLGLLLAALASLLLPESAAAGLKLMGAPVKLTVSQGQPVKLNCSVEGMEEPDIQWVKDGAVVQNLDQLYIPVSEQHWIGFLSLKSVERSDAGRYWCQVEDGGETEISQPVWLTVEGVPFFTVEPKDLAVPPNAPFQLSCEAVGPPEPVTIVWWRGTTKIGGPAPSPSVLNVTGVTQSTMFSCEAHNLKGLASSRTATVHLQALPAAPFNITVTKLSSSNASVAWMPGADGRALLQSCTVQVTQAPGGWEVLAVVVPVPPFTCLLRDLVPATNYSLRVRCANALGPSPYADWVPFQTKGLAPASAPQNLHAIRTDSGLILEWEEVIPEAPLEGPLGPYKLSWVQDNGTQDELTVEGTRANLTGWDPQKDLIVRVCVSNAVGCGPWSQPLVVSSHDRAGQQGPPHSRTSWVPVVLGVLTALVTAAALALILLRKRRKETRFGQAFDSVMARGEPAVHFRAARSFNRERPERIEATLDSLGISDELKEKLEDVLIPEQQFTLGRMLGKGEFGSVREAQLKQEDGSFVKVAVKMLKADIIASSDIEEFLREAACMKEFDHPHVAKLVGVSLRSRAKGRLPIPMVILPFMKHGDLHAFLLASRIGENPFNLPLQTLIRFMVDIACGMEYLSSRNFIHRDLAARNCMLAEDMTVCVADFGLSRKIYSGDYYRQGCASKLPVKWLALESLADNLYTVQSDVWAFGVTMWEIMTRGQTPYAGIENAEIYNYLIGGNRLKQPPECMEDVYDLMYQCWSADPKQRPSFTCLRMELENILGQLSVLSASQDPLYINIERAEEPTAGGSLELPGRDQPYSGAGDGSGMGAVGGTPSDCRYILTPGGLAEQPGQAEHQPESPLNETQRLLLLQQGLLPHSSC
Sequence of UniProt P25103 (whole entry, looked up): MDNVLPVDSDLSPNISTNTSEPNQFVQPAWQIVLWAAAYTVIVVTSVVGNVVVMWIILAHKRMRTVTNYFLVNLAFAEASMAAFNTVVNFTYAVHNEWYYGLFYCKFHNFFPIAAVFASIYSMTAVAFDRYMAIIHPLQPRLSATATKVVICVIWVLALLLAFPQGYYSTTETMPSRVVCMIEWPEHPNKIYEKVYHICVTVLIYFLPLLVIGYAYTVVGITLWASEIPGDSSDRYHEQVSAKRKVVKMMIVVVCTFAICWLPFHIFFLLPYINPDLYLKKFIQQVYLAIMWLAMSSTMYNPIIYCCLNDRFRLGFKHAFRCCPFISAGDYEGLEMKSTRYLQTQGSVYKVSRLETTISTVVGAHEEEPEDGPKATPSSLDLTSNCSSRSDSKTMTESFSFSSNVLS
Sequence of UniProt P25021 (whole entry, looked up): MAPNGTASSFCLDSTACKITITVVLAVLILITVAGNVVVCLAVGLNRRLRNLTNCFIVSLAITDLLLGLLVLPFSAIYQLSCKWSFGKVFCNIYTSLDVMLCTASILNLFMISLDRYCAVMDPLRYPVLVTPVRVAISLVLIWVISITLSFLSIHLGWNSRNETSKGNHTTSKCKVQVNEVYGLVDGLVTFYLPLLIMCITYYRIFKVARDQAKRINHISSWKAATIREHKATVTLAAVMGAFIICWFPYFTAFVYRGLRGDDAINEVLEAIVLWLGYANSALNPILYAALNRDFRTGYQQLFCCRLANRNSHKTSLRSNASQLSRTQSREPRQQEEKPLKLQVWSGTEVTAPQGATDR
Sequence of UniProt Q7KZI7 (whole entry, looked up): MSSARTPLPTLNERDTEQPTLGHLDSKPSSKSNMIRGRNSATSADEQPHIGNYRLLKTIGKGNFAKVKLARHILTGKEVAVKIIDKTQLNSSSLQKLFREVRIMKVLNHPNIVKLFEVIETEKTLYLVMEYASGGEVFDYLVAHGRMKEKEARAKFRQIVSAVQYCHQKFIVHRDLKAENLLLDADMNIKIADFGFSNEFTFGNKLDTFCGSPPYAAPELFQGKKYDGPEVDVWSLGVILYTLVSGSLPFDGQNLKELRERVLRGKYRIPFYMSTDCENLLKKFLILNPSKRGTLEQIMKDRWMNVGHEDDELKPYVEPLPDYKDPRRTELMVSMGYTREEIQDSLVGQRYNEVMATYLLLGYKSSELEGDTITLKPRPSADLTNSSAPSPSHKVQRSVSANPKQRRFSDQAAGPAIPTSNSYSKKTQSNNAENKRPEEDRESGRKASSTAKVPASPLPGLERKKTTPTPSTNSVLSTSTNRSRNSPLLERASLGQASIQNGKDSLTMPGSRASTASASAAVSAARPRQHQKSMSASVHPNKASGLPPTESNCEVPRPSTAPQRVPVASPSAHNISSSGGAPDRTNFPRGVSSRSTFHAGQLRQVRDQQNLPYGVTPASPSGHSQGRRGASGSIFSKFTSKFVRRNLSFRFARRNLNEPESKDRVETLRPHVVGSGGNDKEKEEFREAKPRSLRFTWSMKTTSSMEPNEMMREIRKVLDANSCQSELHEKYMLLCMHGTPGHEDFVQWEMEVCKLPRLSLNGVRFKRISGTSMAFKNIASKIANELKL

SMILES | target | test | setting | inhibition
CN(CCN1CCC(OC(=O)Nc2ccccc2-c2ccccc2)CC1)C(=O)c1ccc(CN2CCC(C(N)=O)CC2)cc1 | catechol O-methyltransferase | enzyme activity | 1 µM | 5%
O=C(Nc1cccnn1)N1CCC(=Cc2cccc(Oc3ccc(C(F)(F)F)cn3)c2)CC1 | somatostatin sst5 receptor | – | concentration not given | 23% and 13%
Cn1cccc1-c1cccnc1 | HRH2 (Homo sapiens, UniProt P25021) | binding | 50 µM | -3.72%
COc1ccc(N2C(=O)N(c3c(C)cccc3Cl)Cc3cnc(Nc4ccc(C5CCN(C)CC5)cc4OC)nc32)nc1 | Aurora kinase A (AURKA, Homo sapiens, UniProt O14965) | kinase activity, inhibitor | 0.5 µM, kinase AURORA-A | 5.53%
CN(C(=O)n1cnc(-c2ccc[n+]([O-])c2)c1)C1CCCCC1 | GABAB1B receptor, human | binding | 50 µM, added: [3H]CGP-54626 | 15%
COc1cc(Nc2ncc(F)c(Nc3ccc4c(n3)NC(=O)C(C)(C)O4)n2)cc(OC)c1OC | TYRO3 (Homo sapiens, UniProt Q06418) | kinase binding, KINOMEscan | 10 µM | 61%
O=C(Nc1cnccc1Cl)N1CCN(Cc2ccc3c(c2)OC(F)(F)O3)CC1 | GABAB1B receptor, human | binding | 10 µM, added: [3H]CGP-54626 | 13%
CN1CCN(c2cc(-c3ccncc3)c(-c3ccc4ccccc4c3)nn2)CC1 | TACR1 (Homo sapiens, UniProt P25103) | antagonist, FLIPR | 10 µM | -13.6%
COc1cc2c(NC3CCN(C)CC3)cc(-c3ccc(C)o3)nc2cc1OCCCN1CCCC1 | DNMT1 (Homo sapiens, UniProt P26358) | enzyme activity | 100000 nM | 98.8%
FC(F)(F)c1cccc(Nc2nc(NCCOc3ccccc3)nc3[nH]cnc23)c1 | MARK2 (Homo sapiens, UniProt Q7KZI7) | enzyme activity, inhibitor, Thermo Fisher kinase screening | 5 µM | 0%
